Measurements of several laboratories.
Lines come from different studies, so protocols differ. Values joined by “and” are separate records of one study, mostly repeats; a detail may differ. ± gives the spread as reported.
rep main protease: Replicase polyprotein 1ab, main protease (rep, Severe acute respiratory syndrome coronavirus 2, UniProt P0DTD1)
Spike glycoprotein: Spike glycoprotein (Severe acute respiratory syndrome coronavirus 2, UniProt P0DTC2)

O=C(N[C@@H]1CC[C@H]2C[C@@H]1CN2C(=O)c1ccc(-c2ccccc2)[nH]1)c1cc(O)cc(=O)[nH]1 has an inhibition of 40.6% (rep main protease; enzyme activity, inhibitor; 5 µM, mean of runs).
Nc1ncnc2c([C@@H]3N[C@H](CO)[C@@H](O)[C@H]3O)c[nH]c12 — result for “viral RNA copies”: 2.03e+06 copies/mL (Marburg virus; HeLa, Musoke; 12.5 µM, 1 h).
CC(C)OC(=O)[C@H](C)N[P@](=O)(OC[C@H]1O[C@@H](n2ccc(=O)[nH]c2=O)[C@](C)(F)[C@@H]1O)Oc1ccccc1 has a kon of 18600 M⁻¹ s⁻¹ (Genome polyprotein, NS5 (Yellow fever virus, UniProt P03314)).
For CCN(CC)c1nc(C)cc(OP(=S)(OC)OC)n1, the remaining activity was 112% (uncharacterized protein (Anopheles coluzzii, UniProt A0A6E8VQK1); enzyme activity, inhibitor; Sf9 cell homogenate; 4.587 µM, 0.1667 h, with: α-naphthyl acetate substrate; relative to: no inhibitor).
O=C(NCCCCCCCCCCCCNC(=O)c1cc(OCc2cn([C@@H]3O[C@H](CO)[C@H](O[C@H]4O[C@H](CO)[C@H](O)[C@H](O)[C@H]4O)[C@H](O)[C@H]3O)nn2)cc(OCc2cn([C@@H]3O[C@H](CO)[C@H](O[C@H]4O[C@H](CO)[C@H](O)[C@H](O)[C@H]4O)[C@H](O)[C@H]3O)nn2)c1)c1cc(OCc2cn([C@@H]3O[C@H](CO)[C@H](O[C@H]4O[C@H](CO)[C@H](O)[C@H](O)[C@H]4O)[C@H](O)[C@H]3O)nn2)cc(OCc2cn([C@@H]3O[C@H](CO)[C@H](O[C@H]4O[C@H](CO)[C@H](O)[C@H](O)[C@H]4O)[C@H](O)[C@H]3O)nn2)c1 has a log IC50 of -4.87 (Shiga toxin subunit B (stxB, Shigella dysenteriae, UniProt Q7BQ98); Escherichia coli).
With O=C(N[C@@H]1CC[C@H]2C[C@@H]1CN2C(=O)c1cccc(-n2cncn2)c1)c1cc2c(=O)[nH]ccn2n1 the inhibition was 10.8% (rep main protease; enzyme activity, inhibitor; 5 µM, mean of runs).
For CC[C@H](C)[C@H](NC(=O)[C@H](CC(C)C)NC(=O)[C@H](Cc1c[nH]c2ccccc12)NC(=O)[C@H](CCC(N)=O)NC(=O)[C@@H](NC(=O)[C@H](Cc1ccccc1)NC(=O)[C@H](C)NC(=O)[C@H](CCCCNC(=O)COCCOCCNC(=O)COCCOCCNC(=O)CC[C@H](NC(=O)CCCCCCCCCCCCCCCCCCC(=O)O)C(=O)O)NC(=O)[C@H](CCC(N)=O)NC(=O)[C@H](C)NC(=O)[C@@H](NC(=O)[C@H](CCCCN)NC(=O)[C@H](CC(=O)O)NC(=O)[C@H](CC(C)C)NC(=O)C(C)(C)NC(=O)[C@@H](NC(=O)[C@H](CO)NC(=O)[C@H](Cc1ccc(O)cc1)NC(=O)[C@H](CC(=O)O)NC(=O)[C@H](CO)NC(=O)[C@@H](NC(=O)[C@H](Cc1ccccc1)NC(=O)[C@@H](NC(=O)CNC(=O)[C@H](CCC(=O)O)NC(=O)C(C)(C)NC(=O)[C@@H](N)Cc1ccc(O)cc1)[C@@H](C)O)[C@@H](C)O)[C@@H](C)CC)[C@@H](C)CC)C(C)C)C(=O)N[C@@H](C)C(=O)NCC(=O)NCC(=O)N1CCC[C@H]1C(=O)N[C@@H](CO)C(=O)N[C@@H](CO)C(=O)NCC(=O)N[C@@H](C)C(=O)N1CCC[C@H]1C(=O)N1CCC[C@H]1C(=O)N1CCC[C@H]1C(=O)N[C@@H](CO)C(N)=O, the terminal half-life was 126 h (human, plasma; subcutaneous, 15.0 mg once weekly, week 23, multiple doses).
With CC1(C)[C@@H](O)CC[C@]2(C)[C@H]3C(=O)C=C4[C@@H]5C[C@@](C)(C(=O)O)CC[C@]5(C)CC[C@@]4(C)[C@]3(C)CC[C@@H]12 the kon was 296 M⁻¹ s⁻¹ (Spike glycoprotein; binding, BLI).
For O=C(NC[C@@H]1Cc2ccccc2CN1C(=O)c1nnn2ccccc12)c1cccc2[nH]ncc12, the inhibition was 7.9% (rep main protease; enzyme activity, inhibitor; 5 µM, run 1).
CC[C@H](C)[C@H](NC(=O)[C@@H]1CCCN1C(=O)[C@H](C)NC(=O)[C@@H]1CSSC[C@@H]2NC(=O)[C@H](CC(=O)O)NC(=O)[C@H](CCCNC(=N)N)NC(=O)[C@H](CCC(=O)O)NC(=O)[C@H](CCCNC(=N)N)NC(=O)CNC(=O)[C@H](CC(=O)O)NC(=O)[C@@H]3CSSC[C@H](NC(=O)[C@H](CCC(=O)O)NC(=O)[C@H](CC(C)C)NC(=O)CNC(=O)[C@H](C)NC(=O)[C@H](CSSC[C@H](NC(=O)[C@H](Cc4ccccc4)NC(=O)[C@@H](N)CO)C(=O)N[C@@H](CC(C)C)C(=O)N[C@@H](C(C)C)C(=O)N[C@@H](CCCCN)C(=O)N[C@@H](Cc4c[nH]c5ccccc45)C(=O)N[C@@H](CCCCN)C(=O)N[C@@H](CCC(N)=O)C(=O)N3)NC2=O)C(=O)N[C@@H](Cc2c[nH]c3ccccc23)C(=O)N[C@@H](CCCCN)C(=O)N[C@@H](CCCNC(=N)N)C(=O)N[C@@H](CO)C(=O)NCC(=O)N[C@@H](CC(N)=O)C(=O)N[C@@H](CCCCN)C(=O)N[C@@H](CO)C(=O)N[C@@H](CO)C(=O)N[C@@H](C(C)C)C(=O)N1)C(=O)N[C@H](C(=O)O)[C@@H](C)O gave a koff of 0.184 s⁻¹ (ASIC1 (Homo sapiens, UniProt P78348); binding, SPR; pH 7.5).
CCc1c(C(=O)C(N)=O)c2c(OCC(=O)O)cccc2n1Cc1ccccc1 gave a remaining activity of 85.8% and 90% (Daboia russelii venom phospholipase A2; enzyme activity, inhibitor; GA population; 0.1 µM, with: NOB substrate; relative to: venom alone).
With O=C(O)/C(S)=C/c1c[nH]c2ccc(F)cc12 the inhibition was 3.33% (rep main protease; viral replication, Gluc reporter; SARS-CoV-2; 20 µM).
The kon of O=C(/C=C/c1ccc(O)c(O)c1)OC[C@H]1O[C@@H](OCCc2ccc(O)c(O)c2)[C@H](O)[C@@H](O)[C@@H]1O is reported as 322 M⁻¹ s⁻¹ (Spike glycoprotein; binding, BLI).
The inhibition of O=C1CCCC(=O)C1CC1C(=O)CCCC1=O is reported as -1.09% (rep main protease; viral replication, mKate2 reporter; SARS-CoV-2; 20 µM).
The unbound fraction of Cn1cnc(Cn2c(=O)[nH]/c(=N\c3cc4cn(C)nc4cc3Cl)n(Cc3cc(F)c(F)cc3F)c2=O)n1 is reported as 0.0128 (human, mild renal impairment, plasma; oral, 375 mg single dose, 24 h).
The inhibition of Cc1ccc(-c2ccc(C)cn2)nc1 is reported as -3.55% (rep main protease; reporter gene (Gaussia luciferase), inhibitor; 20 µM).
Under “treatment-induced ADA positive subjects”, CC[C@H](C)[C@H](NC(=O)[C@H](CC(C)C)NC(=O)[C@H](Cc1c[nH]c2ccccc12)NC(=O)[C@H](CCC(N)=O)NC(=O)[C@@H](NC(=O)[C@H](Cc1ccccc1)NC(=O)[C@H](C)NC(=O)[C@H](CCCCNC(=O)COCCOCCNC(=O)COCCOCCNC(=O)CC[C@H](NC(=O)CCCCCCCCCCCCCCCCCCC(=O)O)C(=O)O)NC(=O)[C@H](CCC(N)=O)NC(=O)[C@H](C)NC(=O)[C@@H](NC(=O)[C@H](CCCCN)NC(=O)[C@H](CC(=O)O)NC(=O)[C@H](CC(C)C)NC(=O)C(C)(C)NC(=O)[C@@H](NC(=O)[C@H](CO)NC(=O)[C@H](Cc1ccc(O)cc1)NC(=O)[C@H](CC(=O)O)NC(=O)[C@H](CO)NC(=O)[C@@H](NC(=O)[C@H](Cc1ccccc1)NC(=O)[C@@H](NC(=O)CNC(=O)[C@H](CCC(=O)O)NC(=O)C(C)(C)NC(=O)[C@@H](N)Cc1ccc(O)cc1)[C@@H](C)O)[C@@H](C)O)[C@@H](C)CC)[C@@H](C)CC)C(C)C)C(=O)N[C@@H](C)C(=O)NCC(=O)NCC(=O)N1CCC[C@H]1C(=O)N[C@@H](CO)C(=O)N[C@@H](CO)C(=O)NCC(=O)N[C@@H](C)C(=O)N1CCC[C@H]1C(=O)N1CCC[C@H]1C(=O)N1CCC[C@H]1C(=O)N[C@@H](CO)C(N)=O is recorded as 0% (healthy subjects, single ascending dose; 1.0 mg, titre ≥1:20).
With Oc1ccc(C2=Cc3ccc(O)cc3OC2)cc1 the inhibition was -0.0525% (rep main protease; reporter gene (mKate2), inhibitor; 20 µM).
For Nc1ncnc2c1ncn2[C@H]1C[C@H](O)[C@@H](COP(=O)(O)OP(=O)(O)OP(=O)(O)O)O1, the kcat was 0.116 ± 0.00667 s⁻¹ (Gag-Pol polyprotein, reverse transcriptase (gag-pol, Human immunodeficiency virus type 1 group M subtype B, UniProt P04585, K653A); substrate; K66A mutant, with: matched T:A primer template).
